Results pooled from the literature.
Parts stem from different laboratories: compare values within a part only. Changes are numbered by the printed parent chain.

Study 1 — method: RNA Bind-n-Seq; molecule type: RNA; medium: in vitro; concentration: not given; baseline: input RNA pool; direction: higher = stronger binding
Target: RING finger protein unkempt homolog, zinc fingers 1-6, GST-SBP tag (UNK, Homo sapiens, UniProt Q9C0B0, residues 30-357)
Setting: RNA with constant flanks, human and mouse sites, ends assumed
Construct (chain): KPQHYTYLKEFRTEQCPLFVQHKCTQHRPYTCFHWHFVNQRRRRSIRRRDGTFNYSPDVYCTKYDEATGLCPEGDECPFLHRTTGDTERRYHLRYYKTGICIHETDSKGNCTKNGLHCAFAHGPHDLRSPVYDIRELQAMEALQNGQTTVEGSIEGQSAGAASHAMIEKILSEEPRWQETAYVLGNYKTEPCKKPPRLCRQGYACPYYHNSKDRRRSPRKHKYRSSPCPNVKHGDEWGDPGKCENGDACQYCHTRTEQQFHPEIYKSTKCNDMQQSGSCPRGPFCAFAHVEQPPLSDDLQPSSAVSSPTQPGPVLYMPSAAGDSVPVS
`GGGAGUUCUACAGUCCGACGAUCGUCAGCAGGCCCACCCUAGAGGAGCUGGAAACCCUACACAAGUACUUUCAGCUAGAUGUCAGCCUGGCACAGCUGUAUAGCCACUGGGCUUCUGUAGACUCCCACUUCCAAAGAGUGGCCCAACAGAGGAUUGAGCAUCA` has a bound/input enrichment of 0.225 ratio.
The bound/input enrichment of `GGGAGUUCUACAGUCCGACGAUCGAAUCUGUACUUGUAGAGUGGCGCGAUGCAACAGAGAAGAAUAAGGAGUUUCUCCCGCGUUUAGGAGCUACUAUUGAACAUAUCUCAGUCUCGCCUGCAGGAGAUUUAUUCUGCACUUCUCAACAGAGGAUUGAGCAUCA` is reported as 2.98 ratio.
For `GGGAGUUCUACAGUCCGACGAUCAAGGACCAGUUCAAGAUGCCCCGGGACUGAGGCCGCCCUGCACCUUCAGCGGAUUUGGGGAUUAGGCUCUUUUAGGUAACUGGCUUUCCUGCUGGUCCGUGCGGGAAAUUCAGUCUUGAUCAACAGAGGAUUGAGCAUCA`, the bound/input enrichment was 1.08 ratio.
`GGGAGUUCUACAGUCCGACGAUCUUUGCAGAAUGGAGGCAGCUCUGGUUGACCGGUUCCUUGGUUGAGCUCUGACUCAAGACCUAGGUCCCAAGAGCAGGCCUUCCUCACCUAAGAGAGCAACACCUAUGGGUGACCCAUUCUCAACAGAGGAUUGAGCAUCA` gave a bound/input enrichment of 0.055 ratio.
`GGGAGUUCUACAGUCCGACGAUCGCCCCACUUGAGGUUUUCCGGCGAUUUGUGUGGAACUUCUUCCGCCUGGAGAAUGAACAUCUGAAUAACUGUGGUGAAUUCCGUGCUGUGCGGGACAUCUCUGUGGCCCCCCUGAACGCACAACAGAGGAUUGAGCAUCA` gave a bound/input enrichment of 0.393 ratio.
For `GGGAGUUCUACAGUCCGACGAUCGCCGAGGCCUCACUUAUUCUAAUCUGUAGGGUUUUUUUUUUUUUUUAAAGACUUUUGAAUGUUUAAUAAUUUUGUAGAUCAUGCUCUUUACACAGAGUACCGCUUAUUUAAUAAGACGGGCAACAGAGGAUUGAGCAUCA`, the bound/input enrichment was 28.1 ratio.
`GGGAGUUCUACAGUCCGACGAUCACCAUUGUUGACACCGUGGGAUUUGGAGACCAGAUAAAUAAAGAUGACAGCUAUAAGCCGAUAGUAGAAUAUAUUGAUGCCCAGUUCGAGGCCUACCUGCAAGAGGAAUUGAAGAUUAAACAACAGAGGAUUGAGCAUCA` gave a bound/input enrichment of 7.66 ratio.
`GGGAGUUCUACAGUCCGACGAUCUUUGAAGAAGGUGUGGGGAAACCUGCCAAGCAACUCCAAGAUCUGAGGAAUGCAUCUAGACUUAUUCGUGUGAAUCCUGAAAGUACAACAUCAGUGGUCUAAUGCUUGGGUCUGUUUAUACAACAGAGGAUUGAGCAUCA` has a bound/input enrichment of 0.111 ratio.
The bound/input enrichment of `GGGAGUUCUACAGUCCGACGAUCGAGUUUCCAGACAAGGUUUUUGCUGAGAAGUGGAAUGAAAAUGUUCAGUAUCUCUCAGAAGAUAGAAGUGUGCAAGAAGUACUACAGAAGCAUUUCAAUAUCAGCAAAAACCUGCGGUCACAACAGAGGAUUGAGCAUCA` is reported as 0.134 ratio.
`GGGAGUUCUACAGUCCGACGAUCUAGUGAAUGGUUUCCCCAGUGUAUAUGAAUGUUUUAAGUGUUUCCAAUAGCUUAUGAAAUUUAGGAGCUUUCUAAUACUCGUUUUAUAAAUUUAAUCAUUUGCUAAUGGAAAUUUUACCACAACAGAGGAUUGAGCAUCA` has a bound/input enrichment of 2.31 ratio.
The bound/input enrichment of `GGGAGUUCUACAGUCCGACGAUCACUUUGAUUUUACAUGUUUUCUUGUAAAUAAGCCUGCCUUCCUACCUGGAAUUUGUGUGUGUGUGACUAAUACAUGUUCUACGAGUUAACUACUUUGGCAGUUUUAAUCAUUUCUUCUUUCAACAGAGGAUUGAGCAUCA` is reported as 0.202 ratio.

Study 2 — target: CCNB2, cyclin fold, Cln2 fusion (human); method: yeast growth competition, sequencing; medium: yeast; setting: weak parent motif; baseline: not given; direction: higher = stronger binding
Starting sequence: REV3L docking peptide (human); PPVIIKYIIINRF
Under “normalised enrichment score”, `APVIIKYIIINRF [P1A]` is recorded as 0.521.
`PPVIIKAIIINRF [Y7A]` — result for “normalised enrichment score”: 0.369.
`PPVIIKYIIINRA [F13A]` — result for “normalised enrichment score”: 0.581.
For `PPVIIKYIIANRF [I10A]`, “normalised enrichment score” read 0.234.
For `PPAIIKYIIINRF [V3A]`, “normalised enrichment score” read 0.514.
Under “normalised enrichment score”, `PPVIIKYAIINRF [I8A]` is recorded as 0.186.
`PPVIIKYIAINRF [I9A]` — result for “normalised enrichment score”: -0.382.

Study 3 — target: UBE2B UBC core domain (UniProt P63146); method: yeast two-hybrid; medium: yeast; setting: mostly zero background; baseline: not given; direction: higher = stronger interaction
Chain of UniProt P63146 (whole entry, looked up): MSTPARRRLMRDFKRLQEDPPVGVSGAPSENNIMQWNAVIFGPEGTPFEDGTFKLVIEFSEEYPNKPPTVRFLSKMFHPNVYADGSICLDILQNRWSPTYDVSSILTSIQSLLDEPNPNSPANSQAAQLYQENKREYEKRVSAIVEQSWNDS
B1: PHF21A RING domain (UniProt Q96BD5); chain SPTSTDGDIHEDFCSVCRKSGQLLMCDTCSRVYHLDCLDPPLKTIPKGMWICPRCQDQMLKKEEAIPW
B2: TRIM63 RING domain (UniProt Q969Q1); chain PMENLEKQLICPICLEMFTKPVVILPCQHNLCRKCANDIFQAANPYWTSRGSSVSMSGGRFRCPTCRHEVIMDRHGV
B3: CUL9 RING domain (UniProt Q8IWT3); chain AQAVPVRPDHCPVCVSPLGCDDDLPSLCCMHYCCKSCWNEYLTTRIEQNLVLNCTCPIADCPAQPTGAFIR
B4: TRIM8 RING domain (UniProt Q9BZR9); chain WKNCFEEELICPICLHVFVEPVQLPCKHNFCRGCIGEAWAKDSGLVRCPECNQAYNQKPGLE
B5: IRF2BPL RING domain (UniProt Q9H1B7); chain SPMANSGPLCCTICHERLEDTHFVQCPSVPSHKFCFPCSRESIKAQGATGEVYCPSGEKCPLVGSNVP
B6: TRIM69 RING domain (UniProt Q86WT6); chain VIQDITMELHCPLCNDWFRDPLMLSCGHNFCEACIQDFWRLQAKETFCPECKMLCQYNNCTF
B7: RC3H2 RING domain (UniProt Q9HBD1); chain QAAQWTEFLSCPICYNEFDENVHKPISLGCSHTVCKTCLNKLHRKACPFDQTAINTDIDVL
B8: ARK2C RING domain (UniProt Q6ZSG1); chain EGEESDTDEKCTICLSMLEDGEDVRRLPCMHLFHQLCVDQWLAMSKKCPICRVDIETQLGAD
B9: UHRF2 RING domain (UniProt Q96PU4); chain CGGDPEKKCHSCSCRVCGGKHEPNMQLLCDECNVAYHIYCLNPPLDKVPEEEYWYCPSCKTDSSEVVKAGER
Under “lacZ reporter activity”, `B1 (PHF21A RING domain)` is recorded as 0.
For `B2 (TRIM63 RING domain)`, “lacZ reporter activity” read 0.
`QLRRLQEERTCKVCMDKEVSIVFIPCGHLVVCKDCAPSLRKCPICRSTIKGTVRTF (BIRC3 RING domain (UniProt Q13489))` — result for “lacZ reporter activity”: 0.
For `B3 (CUL9 RING domain)`, “lacZ reporter activity” read 0.
Under “lacZ reporter activity”, `B4 (TRIM8 RING domain)` is recorded as 0.
For `B5 (IRF2BPL RING domain)`, “lacZ reporter activity” read 0.
For `DDENSDNSNECVVCLSDLRDTLILPCRHLCLCTSCADTLRYQANNCPICRLPFRALLQIR (MGRN1 RING domain (UniProt O60291))`, “lacZ reporter activity” read 0.
For `B6 (TRIM69 RING domain)`, “lacZ reporter activity” read 0.
Under “lacZ reporter activity”, `QLRRLQEERTCKVCMDKEVSVVFIPCGHLVVCQECAPSLRKCPICRGIIKGTVRTF (BIRC2 RING domain (UniProt Q13490))` is recorded as 0.
For `B7 (RC3H2 RING domain)`, “lacZ reporter activity” read 0.
`QLQDIKEQTMCPVCLDRLKNMIFLCGHGTCQLCGDRMSECPICRKAIERRILLY (MIB1 RING domain (UniProt Q86YT6))`: “lacZ reporter activity” 0.
`PEELQAMDNVCIICREEMVTGAKRLPCNHIFHTSCLRSWFQRQQTCPTCRMDVLRASLPA (SYVN1 RING domain (UniProt Q86TM6))` — result for “lacZ reporter activity”: 0.
Under “lacZ reporter activity”, `B8 (ARK2C RING domain)` is recorded as 0.
`B9 (UHRF2 RING domain)` — result for “lacZ reporter activity”: 0.
For `RLTMMWEEVTCPICLDPFVEPVSIECGHSFCQECISQVGKGGGSVCPVCRQRFLLKNLRP (TRIM21 RING domain (UniProt P19474))`, “lacZ reporter activity” read 0.
`FPEHFVKSISCQICEHILADPVETNCKHVFCRVCILRCLKVMGSYCPSCRYPCFPTDLES (RAG1 RING domain (UniProt P15918))`: “lacZ reporter activity” 0.

Study 4 — target: NFE2L1, bZIP domain (human); method: DHFR protein complementation; medium: yeast; baseline: wild-type JUN-FOS pair; direction: higher = stronger binding
Setting: single substitutions, most at no-binding floor
Starting sequence: JUN, bZIP domain (human); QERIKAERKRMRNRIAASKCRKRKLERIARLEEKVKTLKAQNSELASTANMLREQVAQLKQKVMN; partner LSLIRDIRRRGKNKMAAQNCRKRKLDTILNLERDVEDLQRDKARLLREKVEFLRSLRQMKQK
For `E32W`, the binding fitness was -1.51 natural log.
For `K39L`, the binding fitness was -1.51 natural log.
With `A46D` the binding fitness was -1.54 natural log.
`E54T` gave a binding fitness of -1.54 natural log.
For `I28D`, the binding fitness was -1.53 natural log.
For `S43R`, the binding fitness was -1.41 natural log.
For `K36F`, the binding fitness was -1.56 natural log.
For `R53A`, the binding fitness was -1.51 natural log.
`N42F` has a binding fitness of -1.48 natural log.
`Q55H` has a binding fitness of -1.45 natural log.
The binding fitness of `K34A` is reported as -1.5 natural log.
For `M51E`, the binding fitness was -1.5 natural log.
With `M51S` the binding fitness was -1.27 natural log.
For `Q41W`, the binding fitness was -1.5 natural log.
`A49E` has a binding fitness of -1.52 natural log.
For `S47D`, the binding fitness was -1.47 natural log.
`E44T` has a binding fitness of -1.55 natural log.

Study 5 — method: DHFR PCA, deep sequencing; medium: yeast; added: (+)-ABA 17 µM; baseline: wild-type fitted maximum; direction: higher = stronger binding
Target: ABI1, truncated, D143A, DHFR fusion (Arabidopsis thaliana)
Setting: methotrexate growth selection, single substitutions
Starting sequence: PYL1, truncated, DHFR fusion (Arabidopsis thaliana); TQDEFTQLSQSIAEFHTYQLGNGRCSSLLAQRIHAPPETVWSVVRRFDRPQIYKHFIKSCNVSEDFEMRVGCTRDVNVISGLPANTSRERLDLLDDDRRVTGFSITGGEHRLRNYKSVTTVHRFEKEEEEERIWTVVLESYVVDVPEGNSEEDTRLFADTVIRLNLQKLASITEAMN; partner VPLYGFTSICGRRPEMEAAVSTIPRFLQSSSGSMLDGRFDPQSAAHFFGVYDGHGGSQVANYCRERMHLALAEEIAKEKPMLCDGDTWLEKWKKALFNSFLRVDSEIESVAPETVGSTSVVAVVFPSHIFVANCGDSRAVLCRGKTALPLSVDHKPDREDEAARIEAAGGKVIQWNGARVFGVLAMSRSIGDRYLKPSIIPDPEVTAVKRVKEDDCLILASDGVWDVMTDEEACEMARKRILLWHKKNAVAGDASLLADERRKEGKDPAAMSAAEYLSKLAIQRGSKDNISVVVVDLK
Under “relative binding score”, `M176L` is recorded as 80.3%.
`E109K`: “relative binding score” 63.9%.
For `T39M`, “relative binding score” read 82.8%.
Under “relative binding score”, `T73G` is recorded as 28.8%.
Under “relative binding score”, `R46N` is recorded as 45.8%.
`Q10A`: “relative binding score” 88.1%.
`D3L`: “relative binding score” 75.4%.
`E151M` — result for “relative binding score”: 81.5%.
For `D3N`, “relative binding score” read 67.8%.
For `T154D`, “relative binding score” read -14.6%.
Under “relative binding score”, `R163D` is recorded as 4.36%.
For `D144S`, “relative binding score” read 47%.
For `D144K`, “relative binding score” read 24.2%.
Under “relative binding score”, `P146C` is recorded as 31.9%.
For `T106P`, “relative binding score” read -15.1%.
Under “relative binding score”, `F124M` is recorded as 109%.
`D92Y` — result for “relative binding score”: 13.2%.
For `N177S`, “relative binding score” read 93.9%.
`L29Q` — result for “relative binding score”: 45.8%.
`N77V` — result for “relative binding score”: 86.9%.
`R113L` — result for “relative binding score”: 74.9%.
`T86F` — result for “relative binding score”: 75.7%.

Some of these lines once more (study 4):
For `I28D`, the binding fitness was -1.53 natural log.
For `S47D`, the binding fitness was -1.47 natural log.
For `R53A`, the binding fitness was -1.51 natural log.
`A49E` has a binding fitness of -1.52 natural log.
With `A46D` the binding fitness was -1.54 natural log.
`E44T` has a binding fitness of -1.55 natural log.
`E54T` gave a binding fitness of -1.54 natural log.
